Experimental data collected from several papers.
Lines come from different studies, so protocols differ. ± marks the error that the study gave.
B1: enzyme (Bacillus pumilus, UniProt A8FFI9); chain EARSIAWSVDEFFKNREGTFVIQEVKEKSPWVYNKKRAKERFAPQSTFKVANALIGLQTGAVRDEYDIKYWDGVKREIDNWNRDHTLGSGMRDSVVWYYQAMARDIGEERMNHWVKAIHYGNKDISGGIDQFWLSSTLRISPIEQVRFLKQLYEETLPFDLKNMRTVKRMMVQEEEKHATLYGKTGSGSDIGWYVGFIKHEHKTYILATNIKGTGIEAKDITYRILKKYHLMEASV
B2: UGT1A9 (Homo sapiens, UniProt O60656); chain GKLLVVPMDGSHWFTMRSVVEKLILRGHEVVVVMPEVSWQLGRSLNCTVKTYSTSYTLEDLDREFKAFAHAQWKAQVRSIYSLLMGSYNDIFDLFFSNCRSLFKDKKLVEYLKESSFDAVFLDPFDNCGLIVAKYFSLPSVVFARGILCHYLEEGAQCPAPLSYVPRILLGFSDAMTFKERVRNHIMHLEEHLLCHRFFKNALEIASEILQTPVTEYDLYSHTSIWLLRTDFVLDYPKPVMPNMIFIGGINCHQGKPLPMEFEAYINASGEHGIVVFSLGSMVSEIPEKKAMAIADALGKIPQTVLWRYTGTRPSNLANNTILVKWLPQNDLLGHPMTRAFITHAGSHGVYESICNGVPMVMMPLFGDQMDNAKRMETKGAGVTLNVLEMTSEDLENALKAVINDKSYKENIMRLSSLHKDRPVEPLDLAVFWVEFVMRHKGAPHLRPAAHDLTWYQYHSLDVIGFLLAVVLTVAFITFKCCAYGYRKCLGKKGRVKKAHKSKTH
Sequence of UniProt P08246 (whole entry, looked up): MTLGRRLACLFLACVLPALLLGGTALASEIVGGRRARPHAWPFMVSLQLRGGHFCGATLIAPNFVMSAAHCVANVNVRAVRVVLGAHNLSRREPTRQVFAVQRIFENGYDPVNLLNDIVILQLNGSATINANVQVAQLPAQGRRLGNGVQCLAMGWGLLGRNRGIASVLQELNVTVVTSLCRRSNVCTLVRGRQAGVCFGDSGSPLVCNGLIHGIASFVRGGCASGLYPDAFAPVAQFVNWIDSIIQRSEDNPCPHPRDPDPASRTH
Sequence of UniProt P00760 (whole entry, looked up): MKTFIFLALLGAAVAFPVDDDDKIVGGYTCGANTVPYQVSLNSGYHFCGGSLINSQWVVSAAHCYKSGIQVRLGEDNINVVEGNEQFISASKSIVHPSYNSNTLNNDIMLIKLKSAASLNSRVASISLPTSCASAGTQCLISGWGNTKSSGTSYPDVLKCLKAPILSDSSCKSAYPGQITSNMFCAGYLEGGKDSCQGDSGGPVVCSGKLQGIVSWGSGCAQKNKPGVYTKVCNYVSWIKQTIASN

`YGIGVGW` has an inhibition of 12% (peptide, human polyclonal IgM RF ABR; concentration not given, 5 µg/mL mAb II-481 coated, together with: RF at 50% max binding concentration).
`CC(C)[C@H](NC(=O)[C@@H]1CCCN1C(=O)[C@H](CCCNC(=N)N)NC(=O)[C@H](CS)NC(=O)[C@H](Cc1c[nH]c2ccccc12)NC(=O)[C@H](CCCNC(=N)N)NC(=O)[C@@H](Cc1ccccc1)NC(=O)[C@H](Cc1c[nH]cn1)NC(=O)[C@H](CCC(=O)O)NC(=O)[C@H](CS)NC(=O)[C@H](CS)NC(=O)[C@H](CCCCN)NC(=O)[C@@H]1CC(=O)N[C@@H](CCCNC(=N)N)C(=O)N[C@@H](C)C(=O)N[C@@H](CC(=O)O)C(=O)N[C@H](Cc2ccc(O)cc2)C(=O)N1)C(N)=O` [technetium-99m labelled] gave a tissue uptake of 0.08 ± 0.04 %ID/g (C57 mice, muscle; intravenous, 0.037 MBq, 24 h).
For `B1 (enzyme)`, the kcat was 830 ± 30 s⁻¹ (O=C(Cc1cccs1)N[C@@H]1C(=O)N2C(C(=O)O)=C(/C=C/c3ccc([N+](=O)[O-])cc3[N+](=O)[O-])CS[C@H]12; steady-state kinetics; pH 7).
For `insulin lispro`, the tmax was 63 min (human, plasma; subcutaneous pump).
With `insulin human` the half-life was 7 min (Serine protease 1 (PRSS1, Bos taurus, UniProt P00760); substrate, RP-HPLC; 1:2 enzyme to substrate ratio, pH 7.4, 37 °C).
The pKa of `rnpA F107W (Bacillus subtilis)` is reported as 6.11 (NMR, refers to: His22; 25 °C, 0.50 M NaCl, folded, sulfate-bound, numbering of the source, together with: sulfate 20 mM).
The Km of `NCC(F)(F)C(F)(F)C(F)(F)C(F)(F)C(F)(F)C(F)(F)F` is reported as 56.1 µM (Neutrophil elastase (ELANE, Homo sapiens, UniProt P08246); cleavage, substrate; pH 7.5).
`B2 (UGT1A9)` has a Vmax of 0.0884 µmol/min/mg (CCN(CC)C(=O)/C(C#N)=C/c1cc(O)c(O)c([N+](=O)[O-])c1; steady-state kinetics; pH 7.4, 37 °C).
`SGVPDRF` has an inhibition of 80% (peptide, human polyclonal IgM RF MCC; concentration not given, 5 µg/mL mAb II-481 coated, together with: RF at 50% max binding concentration).
`CARLSLSWRGLTLCPSK (68Ga-DOTA-labelled)` gave an uptake of 0.17 ± 0.02 SUV (mouse VAP-1; ex vivo biodistribution; peptide, wild-type mouse, B16 melanoma xenograft, tumour; 60 min, together with: 500-fold excess unlabelled DOTA-peptide).

A few entries again:
With `insulin human` the half-life was 7 min (Serine protease 1 (PRSS1, Bos taurus, UniProt P00760); substrate, RP-HPLC; 1:2 enzyme to substrate ratio, pH 7.4, 37 °C).
`CARLSLSWRGLTLCPSK (68Ga-DOTA-labelled)` gave an uptake of 0.17 ± 0.02 SUV (mouse VAP-1; ex vivo biodistribution; peptide, wild-type mouse, B16 melanoma xenograft, tumour; 60 min, together with: 500-fold excess unlabelled DOTA-peptide).
